Results from different studies.
A part holds a random share of what one study measured. Substitutions count along the parent as printed.

Study 1 — technique: protein-binding microarray; form: double-stranded DNA, one strand shown; sample: in vitro; tested at: 250 nM; setting: 60-bp whole probe; with: salmon DNA 0.4 mg/ml; relative to: random background probes; direction: higher = stronger binding; all sequences stand within: GCCTAGCAC … GTCTTGATTCGCTTGACGCTGCTG
Target: Interferon regulatory factor 7, full length, phosphomimetic (IRF7, Homo sapiens, UniProt Q92985, residues 1-503, S101K/S471D/S472D/S475D/S476D/S477D/S483D/S484D/S487D)
Sequence of UniProt Q92985 (whole entry, unmodified, looked up): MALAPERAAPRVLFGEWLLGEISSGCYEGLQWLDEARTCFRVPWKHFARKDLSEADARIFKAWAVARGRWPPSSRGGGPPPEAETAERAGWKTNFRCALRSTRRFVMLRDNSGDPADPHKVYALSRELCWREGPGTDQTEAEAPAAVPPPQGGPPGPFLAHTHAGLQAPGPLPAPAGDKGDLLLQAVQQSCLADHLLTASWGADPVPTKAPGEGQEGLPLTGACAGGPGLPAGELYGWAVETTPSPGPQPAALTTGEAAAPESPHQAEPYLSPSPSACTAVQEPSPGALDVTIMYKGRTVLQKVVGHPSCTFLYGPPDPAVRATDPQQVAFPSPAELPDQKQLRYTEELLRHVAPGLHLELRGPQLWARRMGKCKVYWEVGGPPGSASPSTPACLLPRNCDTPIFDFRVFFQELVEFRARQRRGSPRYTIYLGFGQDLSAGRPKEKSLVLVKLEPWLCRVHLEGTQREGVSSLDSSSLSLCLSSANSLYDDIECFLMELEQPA
Strand | log fluorescence
GACGATCTGAGTATCGAGACGTGCTAG | 0.105 z-score
GACGGTATCGGTTTCGGCACGTGCTAG | 5.44 z-score
TATCCTATCAGTTTAATATCGTGCTAG | 1.11 z-score
AGCATCTTCAAGACTCATAATGTGCTA | 0.00312 z-score
TTAGGTTTCGTTATCGGTTAGTGCTAG | 11.4 z-score
TTAGGTATCGGGACTGGGATAGTGCTA | 0.0609 z-score
TTAGATCTCAGTATCAATTAGTGCTAG | -0.00614 z-score
TTAGGGATCGGTTTCGGTTAGTGCTAG | 9.83 z-score
GACGGTTTCGGTTTCCGGACGTGCTAG | 14.4 z-score
CTCTTTGTTTCACTTCCTGGTGTGCTA | 3.77 z-score
TTAGGTTTCTACTATCGGTTAGTGCTA | 1.82 z-score
GACGGTTTCGGACTCGGGACGTGCTAG | 4.26 z-score

Study 2 — target: CCND1, cyclin fold, Cln2 fusion (human); technique: yeast growth competition, sequencing; sample: yeast; setting: strong parent motif; relative to: not given; direction: higher = stronger binding
Parent: INSM1 docking peptide (human); PKAIRKLHFEDEV; partner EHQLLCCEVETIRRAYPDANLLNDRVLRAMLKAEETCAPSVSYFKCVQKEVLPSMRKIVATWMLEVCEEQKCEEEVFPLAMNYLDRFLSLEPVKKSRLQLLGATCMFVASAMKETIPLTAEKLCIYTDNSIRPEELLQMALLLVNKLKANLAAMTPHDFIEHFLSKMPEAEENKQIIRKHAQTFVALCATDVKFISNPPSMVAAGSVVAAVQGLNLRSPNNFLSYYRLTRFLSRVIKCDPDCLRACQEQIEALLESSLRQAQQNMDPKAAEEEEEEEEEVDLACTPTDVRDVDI
Substitution | normalised enrichment score
PKAIRKLHFESEV [D11S] | 3.5
PKAIRKLHFKDEV [E10K] | 2.01
PKAIRKLHFEGEV [D11G] | 3.45
PKAIRKLHFEWEV [D11W] | 2.04
PKAIRRLHFEDEV [K6R] | 4.04
PKAHRKLHFEDEV [I4H] | 0.852
PKAIRKLHFETEV [D11T] | 3.06
PKAIRKLHREDEV [F9R] | 0.0205
PLAIRKLHFEDEV [K2L] | 3.13
PKAIRGLHFEDEV [K6G] | 0.485
PKAIRKLHFECEV [D11C] | 3.58
PKAIRVLHFEDEV [K6V] | 4.12
PKAIRKLHFEDQV [E12Q] | 3.63
PKAIRKLHFCDEV [E10C] | 3.15
PKAIRKLTFEDEV [H8T] | 6.26

Study 3 — technique: universal PBM; form: double-stranded DNA, one strand shown; sample: in vitro; tested at: 600 nM; direction: higher = stronger binding
Target: Sal-like protein 4, full length isoform A (SALL4, Homo sapiens, UniProt Q9UJQ4, residues 1-1053)
Sequence of UniProt Q9UJQ4 (whole entry, looked up): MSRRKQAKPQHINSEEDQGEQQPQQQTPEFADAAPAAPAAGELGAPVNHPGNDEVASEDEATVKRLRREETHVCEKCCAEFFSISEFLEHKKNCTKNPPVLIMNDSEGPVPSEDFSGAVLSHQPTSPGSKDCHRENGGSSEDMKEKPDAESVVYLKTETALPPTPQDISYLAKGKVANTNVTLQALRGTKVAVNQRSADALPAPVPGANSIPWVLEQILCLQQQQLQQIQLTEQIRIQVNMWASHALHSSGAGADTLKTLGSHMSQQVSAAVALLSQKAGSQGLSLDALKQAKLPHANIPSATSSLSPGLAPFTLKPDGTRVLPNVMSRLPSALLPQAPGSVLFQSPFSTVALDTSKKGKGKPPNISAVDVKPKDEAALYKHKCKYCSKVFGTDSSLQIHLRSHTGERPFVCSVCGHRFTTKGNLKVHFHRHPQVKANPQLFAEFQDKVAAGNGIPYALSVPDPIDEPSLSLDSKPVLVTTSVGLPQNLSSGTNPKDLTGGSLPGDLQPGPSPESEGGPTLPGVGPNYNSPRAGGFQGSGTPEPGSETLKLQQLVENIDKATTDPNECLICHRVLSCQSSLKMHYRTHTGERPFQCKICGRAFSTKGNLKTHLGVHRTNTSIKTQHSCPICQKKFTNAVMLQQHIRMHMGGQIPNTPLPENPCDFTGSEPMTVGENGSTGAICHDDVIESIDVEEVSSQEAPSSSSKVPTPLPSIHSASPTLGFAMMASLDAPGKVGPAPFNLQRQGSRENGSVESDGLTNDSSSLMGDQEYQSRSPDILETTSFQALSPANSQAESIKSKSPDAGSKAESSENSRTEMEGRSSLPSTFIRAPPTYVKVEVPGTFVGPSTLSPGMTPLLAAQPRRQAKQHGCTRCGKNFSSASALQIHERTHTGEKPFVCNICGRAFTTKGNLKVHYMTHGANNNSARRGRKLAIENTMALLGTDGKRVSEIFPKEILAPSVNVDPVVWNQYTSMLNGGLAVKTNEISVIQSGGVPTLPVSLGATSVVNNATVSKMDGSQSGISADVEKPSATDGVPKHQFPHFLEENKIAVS
Setting: 8-mer, flanks averaged, mean of replicates
Strand | E-score
CTCGTAGC | -0.0506
CGGCGGGA | -0.433
ATCAAAAT | 0.225
ATGTCTGG | 0.0582
TCTAAGAA | 0.232
AAAGAGGA | -0.0748
ATGCTGGA | -0.106
GTTCTCAA | 0.121
CGAGCTCG | -0.245
ACGGCGGA | -0.243
CGATGCCC | -0.335

Further values, each from its own experiment
Molecule | target | test | system | setting | scale | measurement | result
PhoQ, residues 284 288 289 292 302 303 WSHMKI | PhoP, residues 12 14 15 18 19 NQCAL (Escherichia coli, UniProt P23836) | Sort-seq, refers to: YFP reporter | E. coli | PhoQ-PhoP variant library, with: 10 µM Mg2+ | relative to: high Mg2+ state, higher = stronger signaling | fold induction | 0.993

Repeated from above (study 2):
Substitution | normalised enrichment score
PKAIRKLHREDEV [F9R] | 0.0205
PKAIRKLHFESEV [D11S] | 3.5
